Experimental data of several laboratories.
Every numbered part comes from another study and shows a few of its results, in no order.

Set 1
Target: RING finger protein unkempt homolog, zinc fingers 1-6, SBP tag (UNK, Homo sapiens, UniProt Q9C0B0, residues 30-357)
UniProt Q9C0B0, sequence (30-357, looked up): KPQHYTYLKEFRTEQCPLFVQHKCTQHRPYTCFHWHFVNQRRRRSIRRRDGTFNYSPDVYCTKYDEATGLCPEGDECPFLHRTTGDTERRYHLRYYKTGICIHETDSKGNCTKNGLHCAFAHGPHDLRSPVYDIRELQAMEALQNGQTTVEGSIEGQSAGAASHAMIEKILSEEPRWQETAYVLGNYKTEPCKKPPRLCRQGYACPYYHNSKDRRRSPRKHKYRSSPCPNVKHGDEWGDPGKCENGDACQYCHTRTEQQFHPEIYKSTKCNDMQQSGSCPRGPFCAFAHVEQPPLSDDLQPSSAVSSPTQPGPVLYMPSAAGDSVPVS
Method: RNA Bind-n-Seq
Form: RNA
Sample: in vitro
Concentration: 100 nM
Setting: RNA with constant flanks, vertebrate orthologous sites, ends assumed
Relative to: input RNA pool
Reading: higher = stronger binding
`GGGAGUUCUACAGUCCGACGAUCUAUCUUUAGGAUGAAGCUCUUACAUCAGGUGUCACGAGUCUGGAGAACGGAUGGGUUGACCAGCUGUAUCUAUAAAUUACUCUCUGUGGAUUAUAAUCCUUUGUAUACCAACAUCACAGUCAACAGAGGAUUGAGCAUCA` has a bound/input enrichment of 0.306 ratio.
For `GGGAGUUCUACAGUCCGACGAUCUGGGUUACUCCUAUUAUUAUCAAGUAGCUGGAAUUGUGAAGGUCGGAGUAGUUAGAUCUUUAGCUUUUAUUCCUUUUUUUUGUAUUACUAUCCAUGUGUAUAAAUUAUUGAUCAUGUUGCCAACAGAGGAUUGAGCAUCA`, the bound/input enrichment was 2.68 ratio.
`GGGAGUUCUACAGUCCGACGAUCUUACAGUCAUUGAUGGACUCUAUUUUUUUAUUAUUACUUGGACUUUGGUCGUUUUUAUACUAGCAAAAUGUCUUGUUUUAAUUUGUGUUUUUUUGGGGGAGGGGGAGGGAGUGAACUUGCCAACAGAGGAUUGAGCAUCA` has a bound/input enrichment of 1.45 ratio.
With `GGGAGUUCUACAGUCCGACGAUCGGGCAGCCGGUGGGGGAAUUCCCUGCCUUGGCCUUGCCUCCCCUUCCUGCUACCUGCCCCUAGUUUGUUUUUUUUUUUUAAACCACCAUGUGAUUAAGGUCGGUGUUGCCUCCCCCGACCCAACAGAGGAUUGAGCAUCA` the bound/input enrichment was 3.06 ratio.
The bound/input enrichment of `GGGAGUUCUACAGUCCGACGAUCACUUGUUUCAUUUUAGGUAUCAUUGCCCAAUGCCCAAGAUCUUUUAUGUUCAACUGACUGUAGGAAAUAAUGAAUUUUUUGGGGAAGGGAAGACUCGACAAGCUGCUCGACAUAAUGCUGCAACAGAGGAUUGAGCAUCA` is reported as 0.952 ratio.
`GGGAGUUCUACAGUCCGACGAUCCAGCCAACUCCCUUAUCGGCCGGGCUGCUCACAUCGCCGUCCUCGACUCUGAGAUCUUCCUGGAGAAGUUCUUCCUUGUUGCAGGCCUCAAGUUCUUUCAGUAGAACUGUGACAGAUUCGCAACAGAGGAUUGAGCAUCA` has a bound/input enrichment of 0.47 ratio.
The bound/input enrichment of `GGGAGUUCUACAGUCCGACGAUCCAAUUCAAUGGUUGAGGGUUCAGAACUCAAAAAGAUUCGGUCCAACUCUAGAAUUUACCACAGAUAUUUUUUACUGGAUGCUGACAUGCAGAGCCUAAGGUGGGAGCCAUCCAAGAAGGACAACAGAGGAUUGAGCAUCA` is reported as 0.179 ratio.
The bound/input enrichment of `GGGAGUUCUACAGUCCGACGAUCUCUCUCAUUUUGUAUGUCCAAAAAAGGUUUUGAAUUUUUAAACAAUUUGCUAGUUUUGAUUAGCUCUGCCCUCAUGAAGUAUUAUUAUAAUCACCACAAACAGAUAUCUGUCUGAAUUACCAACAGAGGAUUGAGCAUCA` is reported as 0.595 ratio.

Set 2
Target: Histone acetyltransferase KAT6A, both winged helices, GST fusion (KAT6A, Homo sapiens, UniProt Q92794, residues 1-181)
Method: protein binding microarray
Form: double-stranded DNA, one strand shown
Sample: in vitro
Concentration: not given
Setting: 8-mer, flanks averaged, mean of 2 arrays, mostly near background
Relative to: not given
Reading: higher = stronger binding
Construct (chain): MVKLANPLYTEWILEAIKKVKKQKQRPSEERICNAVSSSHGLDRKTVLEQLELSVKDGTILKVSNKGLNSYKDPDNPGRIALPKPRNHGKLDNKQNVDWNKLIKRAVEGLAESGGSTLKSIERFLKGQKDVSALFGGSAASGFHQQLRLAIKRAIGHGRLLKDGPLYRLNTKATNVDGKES
With `ACTGACAT` the E-score was -0.219.
The E-score of `CGATTCGC` is reported as 0.131.
For `TCCGAAAA`, the E-score was 0.0246.
For `CCCCCTAA`, the E-score was -0.223.
For `GAAGCGAA`, the E-score was 0.0162.
`CGAGAATC` has an E-score of 0.0543.
The E-score of `CCGTGACG` is reported as 0.235.
`CGTATAAA` gave an E-score of 0.244.

Set 3
Target: Replicase polyprotein 1ab, main protease (rep, Severe acute respiratory syndrome coronavirus 2, UniProt P0DTD1)
Effect on: enzyme activity
Action: inhibitor
Concentration: 20 µM
Setting: primary screen
The inhibition of `C=C1c2cccc(O)c2C(=O)C2C(=O)[C@]3(O)C(=O)C(C(N)=O)C(=O)[C@@H](N(C)C)[C@@H]3[C@@H](O)[C@H]12` (some centres unmarked) is reported as 95.2%.
The inhibition of `O=C(O)c1ccc(N2C(=O)/C(=C\c3ccc(-c4ccc([N+](=O)[O-])cc4)o3)C=C2c2ccccc2)cc1` is reported as 61.1%.
The inhibition of `CS/C(N)=C(C#N)/C(C#N)=C(\N)SC` is reported as 53.3%.
With `COC1=C2C[C@@H](C)C[C@H](OC)[C@H](O)[C@@H](C)/C=C(\C)[C@H](OC(N)=O)[C@@H](OC)/C=C/C=C(\C)C(=O)NC(=CC1=O)C2=O` the inhibition was 31.5%.

Set 4
Target: Sal-like protein 4, full length isoform B (SALL4, Homo sapiens, UniProt Q9UJQ4-2, residues 1-616)
Method: universal PBM
Form: double-stranded DNA, one strand shown
Sample: in vitro
Concentration: not given
Setting: 8-mer, flanks averaged, mean of replicates
Reading: higher = stronger binding
Residues (chain): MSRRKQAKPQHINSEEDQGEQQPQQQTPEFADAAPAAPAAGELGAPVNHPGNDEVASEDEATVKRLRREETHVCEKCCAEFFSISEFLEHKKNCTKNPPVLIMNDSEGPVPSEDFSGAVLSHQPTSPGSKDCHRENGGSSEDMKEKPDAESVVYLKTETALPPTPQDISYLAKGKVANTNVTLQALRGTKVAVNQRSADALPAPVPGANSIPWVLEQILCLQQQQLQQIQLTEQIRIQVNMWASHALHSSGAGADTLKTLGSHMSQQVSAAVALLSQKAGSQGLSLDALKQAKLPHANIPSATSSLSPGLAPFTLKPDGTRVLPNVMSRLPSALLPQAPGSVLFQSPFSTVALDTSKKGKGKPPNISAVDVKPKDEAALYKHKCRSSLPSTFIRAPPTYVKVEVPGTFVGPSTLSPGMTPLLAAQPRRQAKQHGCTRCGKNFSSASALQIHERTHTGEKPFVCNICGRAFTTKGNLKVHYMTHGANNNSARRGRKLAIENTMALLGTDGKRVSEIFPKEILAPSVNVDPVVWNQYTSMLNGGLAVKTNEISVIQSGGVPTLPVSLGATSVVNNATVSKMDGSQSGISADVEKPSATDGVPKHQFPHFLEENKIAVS
The E-score of `GGTGATAA` is reported as 0.19.
With `ATTTGCTG` the E-score was 0.216.
`AGGACTAG` gave an E-score of 0.00831.
With `CGGTCTCA` the E-score was -0.0638.
`AGATGCTA` has an E-score of 0.11.
`CGGATGAG` gave an E-score of -0.0964.
For `GGAATCAA`, the E-score was -0.0322.
The E-score of `AATATAAC` is reported as 0.392.

Set 5
Target: Replicase polyprotein 1ab, polymerase (rep, Severe acute respiratory syndrome coronavirus 2, UniProt P0DTD1)
Effect on: enzyme activity
Action: inhibitor
Concentration: 20 µM
For `Cc1cc(-c2nc3cc(F)ccc3s2)ccc1NC(=O)[C@@H](N)CCCCN`, the inhibition was -1.53%.
For `CCc1nn(CCCN2CCN(c3cccc(Cl)c3)CC2)c(=O)n1CCOc1ccccc1`, the inhibition was -0.87%.
`O=C(O)Cc1ccc(OCc2ccccc2)c(Cl)c1` gave an inhibition of -1%.
The inhibition of `CC(C)(C)c1ccc(S(=O)(=O)NCc2ccc(C(=O)Nc3cccnc3)cc2)cc1` is reported as 0.25%.
`O=C(Nc1c[nH]nc1-c1nc2ccc(CN3CCOCC3)cc2[nH]1)NC1CC1` gave an inhibition of -5.35%.
With `CN1C(=O)c2c(nn(Cc3ccc(-c4cccc(F)n4)cc3)c2Nc2ccccc2)N2C1=N[C@@H]1CCC[C@@H]12` the inhibition was 68.1%.
`CN1CCN(c2cc(-c3ccccc3)nc(N)n2)CC1` has an inhibition of -4.91%.
With `CCCCCOc1ccc(-c2ccc(-c3ccc(C(=O)N[C@H]4C[C@@H](O)[C@@H](O)NC(=O)[C@@H]5[C@@H](O)[C@@H](C)CN5C(=O)[C@H]([C@@H](C)O)NC(=O)[C@H]([C@H](O)[C@@H](O)c5ccc(O)cc5)NC(=O)[C@@H]5C[C@@H](O)CN5C(=O)[C@H]([C@@H](C)O)NC4=O)cc3)cc2)cc1` the inhibition was 9.19%.
For `Cc1ccc(Cl)cc1N(CC(=O)Nc1c(F)cccc1F)S(C)(=O)=O`, the inhibition was -2.43%.
`O=C(/C=C/c1cccc(F)c1)NC1CC1` gave an inhibition of -0.75%.
With `CCC[C@@H]1C[C@@H](C(=O)N[C@@H]([C@H]2O[C@H](SC)[C@H](O)[C@@H](O)[C@H]2O)[C@@H](C)O)N(C)C1` the inhibition was 18.7%.
With `CCc1cc2c(cc1N1CCC(N3CCOCC3)CC1)C(C)(C)c1[nH]c3cc(C#N)ccc3c1C2=O` the inhibition was 5.38%.
With `CC(C)=CCC[C@](C)(O)[C@H]1CC[C@]2(C)[C@@H]1[C@H](O)C[C@@H]1[C@@]3(C)CC[C@H](O)C(C)(C)[C@@H]3CC[C@]12C` the inhibition was -3.39%.
With `CC[C@H]1[C@@H](O)[C@@H]2[C@H](CC[C@]3(C)[C@@H]([C@H](C)CCC(=O)O)CC[C@@H]23)[C@@]2(C)CC[C@@H](O)C[C@@H]12` the inhibition was 6.06%.
`CCC(C)N(C)C(=O)c1cc2ccccc2c(-c2ccccc2Cl)n1` (centres unmarked) has an inhibition of -6.19%.
The inhibition of `CC(C)(F)C[C@H](N[C@@H](c1ccc(-c2ccc(S(C)(=O)=O)cc2)cc1)C(F)(F)F)C(=O)NC1(C#N)CC1` is reported as -4.01%.
`O=C1c2ccccc2CCC1CNCCc1ccc(O)cc1` (centres unmarked) gave an inhibition of 2.16%.
`CC(=O)N[C@@H](CSSC[C@H](NC(C)=O)C(=O)O)C(=O)O` gave an inhibition of 1.98%.
The inhibition of `C[C@H](CCC(=O)O)[C@H]1CC[C@H]2[C@@H]3[C@H](O)C[C@@H]4C[C@H](O)CC[C@]4(C)[C@H]3C[C@H](O)[C@]12C` is reported as -3.61%.
`C=CCOc1ccc(CC(=O)O)cc1Cl` has an inhibition of -1.99%.
`CC1(C)CCC(C)(C)c2cc(C3(c4ccc5cc(C(=O)O)ccc5c4)SCCS3)ccc21` has an inhibition of 2.25%.
For `C/C(=C\c1csc(C)n1)[C@@H]1C[C@@H]2O[C@]2(C)CCC[C@H](C)[C@H](O)[C@@H](C)C(=O)C(C)(C)[C@@H](O)CC(=O)O1`, the inhibition was -5.23%.
With `CC(C)(C)c1cc(NC(=O)Nc2ccc(-c3cn4c(n3)sc3cc(OCCN5CCOCC5)ccc34)cc2)no1` the inhibition was -1.82%.
`CCN1CCC[C@H]1CNC(=O)c1c(O)c(Cl)cc(Cl)c1OC` gave an inhibition of -0.41%.
`NC(CO)C(=O)NNCc1ccc(O)c(O)c1O` (centres unmarked) gave an inhibition of -2.94%.

Set 6
Cell line: HEK-293T
Effect on: pseudovirus infection
Method: FDA-approved drug library screen
Organism: VSV pseudotyped with SARS-CoV-2 spike
Concentration: 10 µM
Time: 16 h
Relative to: vehicle-treated
The GFP-positive cells of `CC(C)/N=c1\cc2n(-c3ccc(Cl)cc3)c3ccccc3nc-2cc1Nc1ccc(Cl)cc1` is reported as 80%.
`CCCCNc1cc(C(=O)O)cc(S(N)(=O)=O)c1Oc1ccccc1` has a GFP-positive cells of 90%.
`COc1cccc2c1C(=O)c1c(O)c3c(c(O)c1C2=O)C[C@@](O)(C(=O)CO)C[C@@H]3O[C@H]1C[C@H](N)[C@@H](O)[C@H](C)O1` gave a GFP-positive cells of 94.4%.
